Results from different studies.
Each line is one published result; not all experiments were run side by side. “And” joins repeats or separate records; there may be more than shown. ± marks the error that the study gave.
Sequence of UniProt Q16853 (whole entry, looked up): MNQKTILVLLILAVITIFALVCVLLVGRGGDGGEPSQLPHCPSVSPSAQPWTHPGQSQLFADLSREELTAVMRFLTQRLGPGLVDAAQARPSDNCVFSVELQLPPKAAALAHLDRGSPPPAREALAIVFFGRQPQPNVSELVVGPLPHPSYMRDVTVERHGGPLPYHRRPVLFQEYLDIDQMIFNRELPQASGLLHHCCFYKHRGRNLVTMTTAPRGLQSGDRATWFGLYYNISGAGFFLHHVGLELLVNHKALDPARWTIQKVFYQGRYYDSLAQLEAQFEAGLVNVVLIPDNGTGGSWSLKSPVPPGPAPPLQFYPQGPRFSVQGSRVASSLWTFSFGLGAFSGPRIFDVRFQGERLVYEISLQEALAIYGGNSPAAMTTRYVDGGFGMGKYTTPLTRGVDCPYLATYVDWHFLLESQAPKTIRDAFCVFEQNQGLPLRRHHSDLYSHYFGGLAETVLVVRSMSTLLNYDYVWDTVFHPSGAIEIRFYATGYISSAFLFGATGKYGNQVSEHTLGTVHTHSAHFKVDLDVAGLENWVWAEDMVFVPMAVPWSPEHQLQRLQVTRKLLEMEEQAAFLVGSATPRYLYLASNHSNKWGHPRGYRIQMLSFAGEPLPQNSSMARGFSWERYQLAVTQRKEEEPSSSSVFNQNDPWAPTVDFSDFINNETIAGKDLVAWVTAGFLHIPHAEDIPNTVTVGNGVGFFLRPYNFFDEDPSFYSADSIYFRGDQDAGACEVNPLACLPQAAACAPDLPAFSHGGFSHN

Under “Papp A to B”, `CCn1c(=O)c2c(nc(/C=C/c3ccc(OC)c(OC)c3)n2C)n(CC)c1=O` is recorded as 38 ×10⁻⁶ cm/s and 23.5 ×10⁻⁶ cm/s (MDCK; 1 µM, 90 min, pH 6.5 apical, 7.4 basolateral).
`[18F]c1ccc(-c2ccc3c(c2)[nH]c2ccncc23)cn1` gave an SUV of 1.6 ± 0.404 (ex vivo biodistribution; APP/PS1 mouse, AD model, stomach; intravenous, 30 min).
`CCN1/C(=C/C(C)=O)Sc2ccc(F)cc21` — result for “mean blood pressure change”: 99.4 ± 4.7% (cynomolgus monkey; oral, 30 mg/kg, 0.5 h post-dose; baseline: pre-dose).
With `Cc1cc(C(=O)NC(C)(C)COc2cccc3c2C(N)=NS(=O)(=O)N3)cc(C)n1` the cytotoxicity was -2% (human peripheral blood lymphocytes; CBPI, concurrent micronucleus test; 250 µg/mL, 4 h; baseline: vehicle control).
For `CC(C)n1nccc1-c1ncccc1COc1cccc(O)c1C=O`, the mass recovery was 85 ± 5% (MDCK; 1 µM, 90 min, pH 7.4 apical, 7.4 basolateral, apical to basolateral).
`CC[C@H](CO)N(CCN(N=O)[C@H](CC)CO)N=O`: “revertant colonies per plate” 128 ± 22 (Escherichia coli; mutagenicity, Ames plate incorporation; WP2 uvrA pKM101; 50 µg/plate, without S9, methanol).
`Cc1cc(Nc2ccc(S(F)(F)(F)(F)F)cc2)n2nc(C(C)(F)F)nc2n1` — result for “patients with QTcF increase”: 16.7% (Plasmodium vivax; 12-lead ECG; malaria patients; oral, 800 mg, increase above 30 ms).
For `CCOc1c([C@H](C)n2nc(C)c3c(N)ncnc32)cc(Cl)c(F)c1[C@@H]1CNC(=O)C1`, “AUC(0-last) geometric mean” read 13.1 µM·h (patients, monotherapy; oral, 30 mg once daily, cycle 1 day 1).
The uptake half-time of `NC(=O)CC[C@H](N)C(=O)O` is reported as 11.3 h (Escherichia coli; MG1655, M9 medium; 1 mM, 1 mM equimolar amino acid mixture).
`CC(=O)Nc1cccc(-n2c(=O)n(C3CC3)c(=O)c3c(Nc4ccc(I)cc4F)n(C)c(=O)c(C)c32)c1` gave a viability of 0.962 and 0.814 (MeWo; resazurin; 1.56 nM, 72 h, unit not given; baseline: DMSO).
`NCc1cc2c(cc1F)C(=O)N(C1CCC(=O)NC1=O)C2` (stereo not shown) has a concentration of 308 ng/mL and 341 ng/mL (AOC3 (Homo sapiens, UniProt Q16853); LC-MS/MS; cirrhotic human liver lysate; 1.95 µM, 60 min, pH 7.4, 37 °C).
For `C[C@@H](c1ncncc1F)[C@](O)(Cn1cncn1)c1ccc(F)cc1F`, “Papp A to B” read 50.5 ×10⁻⁶ cm/s and 43 ×10⁻⁶ cm/s (MDCK; 1 µM, 90 min, pH 6.5 apical, 7.4 basolateral).
For `Cc1ncc(CO)c(CO)c1O`, “host cell number” read 0.997 ± 0.156 (HCT-8 infected with Cryptosporidium parvum; Hoechst nuclei count; 1 mM, 24 h; baseline: PBS).
The mass recovery of `CC(=O)Nc1ccc(O)cc1` is reported as 90 ± 5% (MDCK; 1 µM, 90 min, pH 7.4 apical, 7.4 basolateral, apical to basolateral).
With `C[C@H](N)C(=O)O` the uptake half-time was 23.5 h (Escherichia coli; MG1655, M9 medium; 1 mM, 1 mM equimolar amino acid mixture).
For `CN(Cc1cnc2nc(N)nc(N)c2n1)c1ccc(C(=O)N[C@@H](CCC(=O)O)C(=O)O)cc1`, the intracellular accumulation was 6.68 µM (Escherichia coli; LC-MS/MS; BW25113; 100 µM, 10 min, 37 °C).
